Results gathered from unrelated publications.
Each line is one published result; not all experiments were run side by side. Numbers after ± are the reported error. In brackets after ≈: the same amount, converted by molar mass.
CDK2: Cyclin-dependent kinase 2 (CDK2, Homo sapiens, UniProt P24941)

| Structure (SMILES) | target or system | assay | test system | conditions | how to read | measurement | result |
| --- | --- | --- | --- | --- | --- | --- | --- |
| Cc1cc(-c2nnc(N)nc2-c2ccc(F)cc2)cc(Cl)n1 | – | item: Vomiting | human phase Ia/Ib mCRPC, immunotherapy-naive | oral, dose not given | – | patients with treatment-related adverse events | 21.5% |
| Cn1cc(-c2ccc(-c3cncc(Cl)c3N3CCC4(CCNC4=O)CC3)cc2)cn1 | COLO 205 | microarray, item: BBC3 | – | concentration not given, 6 h, gene set PUMA | relative to: untreated cells | fold change in expression | 3.35 |
| Cc1ccc([C@@H]2O[C@H](CO)[C@@H](O)[C@H](O)[C@H]2O)cc1Cc1ccc(-c2ccc(F)cc2)s1 | – | – | Japanese type 2 diabetes patients | 400 mg, day 5, 24 h urine collection | relative to: baseline | urinary sodium excretion change | 2.65 mEq |
| CCOc1c([C@H](C)n2nc(C)c3c(N)ncnc32)cc(Cl)c(F)c1[C@@H]1CNC(=O)C1 | – | – | patients, monotherapy | oral, 20 mg once daily, cycle 1 day 1 | – | AUC(0-last) geometric mean | 5.58 µM·h |
| CC(C)(C(=O)N1CCOc2c(C#N)cncc2C1)C(F)F | – | item: nervous system disorders | human | oral, 40 mg, CSF pharmacokinetic cohort | – | subjects with adverse event | 83.3% |
| N#Cc1ccc2c(c1)[C@H]1CCCN(C(=O)c3ccc4[nH]cnc4c3)[C@H]1C2 | – | – | human, male | 360 mg, end of trial | – | androstenedione level | 4.7 nmol/L |
| CCO | – | – | human | concentration not given, treatment-emergent adverse event | – | feeling hot | 11.1% |
| CCCCCCCCCCCC[N+](C)(C)Cc1ccccc1.[Br-] | – | – | mouse erythrocytes | 10 µM, 30 min, 37 °C | – | hemolysis | ~7% |
| COc1ccc(-n2c(SCC(N)=O)nnc2-c2cccs2)cc1 | CDK2 | binding | – | – | – | Kd | > 100 µM |
| O=C(OC(C(F)(F)F)C(F)(F)F)N1CCN(Cc2cccc(Oc3ccccc3)c2)CC1 | – | PET blocking study | rhesus monkey, brain OCC | 0.3 mg/kg, compound pretreatment, added: [18F]T-401 tracer | – | Ktrans | 0.0078 min⁻¹ |
| O=C1CCc2ccc(OCCCCN3CCN(c4cccc(Cl)c4Cl)CC3)cc2N1 | – | item: Sedation | genotyped patients, CYP2D6 normal metabolizers | dose not given, long-acting oral or depot | – | adverse event incidence | 11% |
| CNC[C@H](O)[C@@H](O)[C@H](O)[C@H](O)CO.O=C([O-])CN1CCN(CC(=O)[O-])CCN(CC(=O)O)CCN(CC(=O)[O-])CC1.[Gd+3] | – | – | water | 20 °C, 1.0 T, non-self-assembled | – | r1 relaxivity | 4.13 ± 0.05 mM⁻¹ s⁻¹ |
| COc1ncc(-c2nc3c(n2C(C)C)[C@H](c2ccc(Cl)cc2)N(c2cc(Cl)cn(C)c2=O)C3=O)c(OC)n1 | – | – | human patients, plasma | oral, 7.5 mg, cycle 1 day 1, low-dose | – | geometric mean Cmax | 39 ng/mL |
| O=C(Nc1nc2cccc(-c3ccc(CN4CCS(=O)(=O)CC4)cc3)n2n1)C1CC1 | – | item: gastrointestinal pain | human rheumatoid arthritis patients | oral, 75 mg once daily, 4 weeks, regardless of relatedness | – | treatment-emergent adverse events | 0% |
| Cn1cc(-c2cn3nccc3c(-c3cnn([C@]4(CC#N)C[C@@H](C#N)C4)c3)n2)cn1 | – | – | healthy humans fed, plasma | 100 mg once daily, day 10, geometric mean | – | average concentration | 81.3 ng/mL |
| O=C(Nc1cnccc1Cl)N1CCN(Cc2ccc3c(c2)OC(F)(F)O3)CC1 | – | – | young women, plasma | oral, 100 mg once daily, day 10, normalized to 10 mg | – | dose-normalized AUC(0-tau) | 697 ng·h/mL |

| Structure (SMILES) | target or system | assay | test system | conditions | how to read | measurement | result |
| --- | --- | --- | --- | --- | --- | --- | --- |
| [18F]c1ccc(-c2ccc3c(c2)[nH]c2ccncc23)cn1 | – | microPET/CT imaging | APP/PS1 mouse, AD model, heart | intravenous, 10 min | – | SUV | 1.12 ± 0.492 |
| C[C@@H]1CCO[C@H]2Cn3cc(C(=O)NCc4ccc(F)cc4F)c(=O)c(O)c3C(=O)N12 | – | population PK, post-hoc | children, 10 to <14 kg, plasma | oral, 15 mg dispersible tablet, 24 h, steady state, geometric mean | – | plasma concentration | 731 ng/mL |
| C[Si](C)(C)O[Si](C)(C)C | – | – | – | – | – | slope B, log KOA vs 1/T | 1390 |
| O=C(O)CCC(=O)O.[2H]C([2H])([2H])Oc1cc(C)c2[nH]ccc2c1CN1CC[C@@H](C2CC2)C[C@H]1c1ccc(C(=O)O)cc1 | – | multiple ascending dose | healthy Chinese subjects | 50 mg twice daily | – | subjects with increased creatinine TEAE | 0% |
| COc1ccc2c(c1)CN(C(=O)CCN1CCC(Cc3ccccc3)CC1)CC[S@@+]2[O-] | – | – | beagle dog, female | intravenous, 8 mg/kg, day 1, 14-day toxicity study | – | blood concentration | 5560 ± 2730 ng/mL |
| CNCc1ccc(-c2[nH]c3cc(F)cc4c3c2CCNC4=O)cc1 | – | – | human patients | oral, 600 mg twice daily, grade 2 | – | AST/ALT increased incidence | 11.5% |
| O=C1CCCCN1c1ccc(CO[C@@H]2COc3nc([N+](=O)[O-])cn3C2)cn1 | – | – | aqueous buffer | pH 7.4 | – | aqueous solubility | 28.3 µg/mL (≈ 75.8 µM) |
| NS(=O)(=O)c1cc(C(=O)O)c(NCc2ccco2)cc1Cl | – | item: general and administration site disorders | healthy men | oral, 8 days, treatment-emergent, crossover trial | – | subjects with adverse event | 0% |
| CCc1cc(C(=O)NC)c2nccc(N3CCc4c(cc(Cn5ccnc5)cc4-c4cn(C)nc4C(F)(F)F)C3=O)c2c1 | – | – | Sprague Dawley rat | oral, 100 mg/kg once daily, 7 days | – | spleen weight | 0.596 ± 0.078 g |
| COc1cc([N+](=O)[O-])ccc1NC(=O)CN1CCOCC1 | CDK2 | binding | – | – | – | Kd | > 100 µM |
| O=C(N[C@H](Cc1c[nH]c2ccccc12)C(=O)Nc1ccncc1)c1ccc(N2CCN(c3ccc(F)cc3F)CC2)cc1F | – | – | Swiss Webster mouse, female, heart | oral, 50 mg/kg, 8 h, 20% Kolliphor vehicle | – | concentration | 12.6 µM |
| C[C@H](CCC(=O)O)[C@H]1CC[C@H]2[C@@H]3[C@H](O)C[C@@H]4C[C@H](O)CC[C@]4(C)[C@H]3CC[C@]12C | – | – | human, plasma | endogenous control diurnal | relative to: daily mean concentration | relative peak deviation | 155 ± 28% |
| NC(CO)(CO)CCc1ccc(Sc2cccc(OCc3ccccc3)c2)cc1Cl | – | – | human, supine | oral, 3 mg, 0 to 312 h, alone | – | pulse rate AUEC, mean | 19200 h×bpm |
| CC[C@@H]([C@H](C)O)n1ncn(-c2ccc(N3CCN(c4ccc(OC[C@@H]5CO[C@@](Cn6cncn6)(c6ccc(F)cc6F)C5)cc4)CC3)cc2)c1=O | – | – | rat plasma | 800 ng/mL, 3 h, room temperature | relative to: nominal concentration | stability relative error | -1.1% |
| COc1cc(Cl)c(C(=O)N[C@@H](CN[C@H]2CC[C@@H](N)CC2)Cc2ccc(C#N)cc2)cc1-c1ccc(CN[C@H](C)c2ccc(C)cc2)o1 | – | – | rat liver microsomes | 1 µM, pH 7.4 | – | blood clearance | 58.3 mL/min/kg |
| Cc1cc(OCC(=O)OCCN)cc(C)c1Cc1ccc(O)c(C(C)C)c1.Cl | – | LC-MS/MS, item: liberated sobetirome | mouse, brain | intraperitoneal, 1.5 µmol/kg, 30 min | relative to: equimolar sobetirome injection | sobetirome level | increased |
